Experimental data gathered from unrelated publications.
Every numbered part comes from another study and shows a few of its results, in no order. Changes are numbered by the printed parent chain.

Series 1
Target: Interferon regulatory factor 7, full length, phosphomimetic (IRF7, Homo sapiens, UniProt Q92985, residues 1-503, S101K/S471D/S472D/S475D/S476D/S477D/S483D/S484D/S487D)
Chain of UniProt Q92985 (whole entry, unmodified, looked up): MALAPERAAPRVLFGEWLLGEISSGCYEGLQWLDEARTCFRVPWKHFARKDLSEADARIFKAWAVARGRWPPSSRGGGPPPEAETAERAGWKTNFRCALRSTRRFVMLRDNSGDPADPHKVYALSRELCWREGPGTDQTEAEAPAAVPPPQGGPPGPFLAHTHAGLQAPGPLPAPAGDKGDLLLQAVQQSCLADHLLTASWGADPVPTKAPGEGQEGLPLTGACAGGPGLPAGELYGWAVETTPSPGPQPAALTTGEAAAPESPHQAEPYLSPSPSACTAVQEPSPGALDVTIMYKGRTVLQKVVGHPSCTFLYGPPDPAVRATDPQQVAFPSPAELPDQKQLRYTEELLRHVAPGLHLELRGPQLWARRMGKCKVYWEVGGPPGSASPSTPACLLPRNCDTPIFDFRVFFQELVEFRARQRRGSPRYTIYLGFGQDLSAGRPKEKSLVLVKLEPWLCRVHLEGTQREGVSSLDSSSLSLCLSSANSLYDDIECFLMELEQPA
Technique: protein-binding microarray
Molecule type: double-stranded DNA, one strand shown
Sample: in vitro
Concentration: 250 nM
Notes: 60-bp whole probe
Added: salmon DNA 0.4 mg/ml
Reference: random background probes
Reading: higher = stronger binding
Shared flanks, not repeated: GCCTAGCAC … GTCTTGATTCGCTTGACGCTGCTG
| Oligonucleotide | log fluorescence [z-score] |
| --- | --- |
| TTAGGTCTCCTCCTGCTTTAGTGCTAG | -0.282 |
| GACGAACTGGGGTTTCGAGACGTGCTA | 1.9 |
| GAAGGTTTCGGGACTGGGGACGTGCTA | 3.54 |
| GTAAATCTTTTTCCCTATTAGTGCTAG | 1.79 |
| TTAGATCTCACTCTCGATTAGTGCTAG | 0.364 |
| TTAGGTCTCGGTATGGGTTAGTGCTAG | 1.79 |
| CGACATCTGCAAGATCCACAAGTGCTA | -0.0793 |
| GTGAGTTTGACATCTTCATCAGTGCTA | -0.383 |
| TTAGGTTTCCTTATCATTTAGTGCTAG | 2.41 |
| TCAAAATTATCTTTAATACTGTGCTAG | -0.0239 |
| GACGGGCTGGGTTTCGGGACGTGCTAG | 1.21 |
| GACGGTATCCTTTTACTGACGTGCTAG | 1.33 |
| TTAGAACTGCGGTTTCGATTAGTGCTA | 7.78 |
| TTAGGTTCCGGTTTCGGTCAGTGCTAG | 8.2 |
| TCACCTTTGCTTTCCTGACTGTGCTAG | 0.401 |
| TCATGCTTTCCTTTATGACTGTGCTAG | 0.667 |
| TTAGATATCGGGACTTGATTAGTGCTA | -0.0188 |
| TTAGGTATCCTTTTCGTTTAGTGCTAG | 2.7 |
| GTCGATTTCAGTATCGAGACGTGCTAG | 1.24 |

Series 2
Target: CCNA1, cyclin fold, Cln2 fusion (human)
Technique: yeast growth competition, sequencing
Sample: yeast
Notes: weak parent motif
Reference: not given
Reading: higher = stronger binding
Parent: CDC25A docking peptide (human); PPHRRRLLFACSP
| Substitution | normalised enrichment score |
| --- | --- |
| R5W | 0.0214 |
| R4H | 0.00715 |
| C11T | 0.176 |
| S12E | 0.329 |
| A10N | 0.0791 |
| P2Q | 0.441 |
| F9K | 0.618 |
| P2G | 0.373 |
| A10P | 0.324 |
| P1D | 0.215 |
| R6P | 0.038 |
| P1K | 0.634 |
| P1R | 0.424 |
| C11A | 0.454 |
| P2C | 0.547 |

Series 3
Target: RNA binding protein fox-1 homolog 2, RRM domain, GST-SBP tag (RBFOX2, Homo sapiens, UniProt O43251-10, residues 100-194)
Technique: RNA Bind-n-Seq
Molecule type: RNA
Sample: in vitro
Concentration: 365 nM
Notes: natural RNA segment, single round, ends assumed
Reference: no-protein control
Reading: higher = stronger binding
Shared flanks, not repeated: GGGAGUUCUACAGUCCGACGAUC … UGGAAUUCUCGGGUGCCAA
Residues (chain): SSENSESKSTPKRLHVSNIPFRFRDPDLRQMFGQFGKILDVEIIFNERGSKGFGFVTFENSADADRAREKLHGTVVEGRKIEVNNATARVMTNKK
| Oligonucleotide | RBNS enrichment (R) |
| --- | --- |
| GUUGGACCAUGUGGGACCCUGAUGGACCUGAAAGACCAGGAUCGGUCCAGCUCAGAUAUUGAGGGCUCUGAAGCCUAGUUCUGUCUUCUCUGGAGCAGCUGUGGCUUCCC | 0.224 |
| AUUCAGGGAACCUGUCUUAAAUUGUGCUUAUCUAAAUCUUGGAACUUUGAGCUAGGGGAGGAGAAUGUAUUAGACUAAAUACAAACUGCGGGGUUGUAAGGGAGUCUCAG | 0.885 |
| UCUGCUCGAAGCUGUCACUUCCUUCUAAGGAUUUACAGAGGCCUAGGGCCCUAACCUUCAGGGGUGGGGACACAAUUAAAGGAAGGGAAUGUAUAAAGAAAUUAUUCUUC | 0.433 |
| CAGUUUCUGGACCAUGUUAUCACCUGUGUGUGUCUCAUAUCUUGGAAAUUGACAGAUUUGGUGAAUAACUUUUCCAUACUAUUCCUGCUUUUCCCAUCCACUGAAACAGC | 0.273 |
| ACUUGAACUGAGUUGCAUCUCAUUUUCUUCUGUAAAAACAAUUACAGUAGCACAUUAAUUUAAAUCUGUGUUUUUAACUACCGUGGGAGGAACUAUCCCACCAAAGUGAG | 0.6 |
| ACAAGGACACUUUAAAACCUUAGGAAUUAUAAAAAUGUCUUUGAUAUUAGAUACUCACAAUCAAAGUCUGAUUUAAUGUAAAAAUUAAUAAAAUGUGUCUAUACUUAGCA | 1.08 |
| UUCCCUUUGGCUGUGACUGGGUGGGGCAGCAUGCAGCUUCUGAUUUUAAAGAGGCAUCUAGGGAAUUGUCAGGCACCCUACAGGAAGGCCUGCCAUGCUGUGGCCAACUG | 3.4 |
| AGAGGCUUCUCACCCUUCCUGCUUUUUCACCACAAUCACCUUGAGCUCGUCCCUUGGACUAGAGUCUCCACAGUUCCAGUAAAAUUCUGCGGUGGGCUGAUGAGCUGCUU | 0.521 |

Further values, each from its own experiment
| Molecule | target | assay | system | setting | scale | quantity | result |
| --- | --- | --- | --- | --- | --- | --- | --- |
| PhoQ, residues 284 288 289 292 302 303 NSMLDC | PhoP, residues 12 14 15 18 19 LWHSL (Escherichia coli, UniProt P23836) | Sort-seq, refers to: YFP reporter | E. coli | PhoQ-PhoP variant library, added: 10 µM Mg2+ | reference: high Mg2+ state, higher = stronger signaling | fold induction | 15.7 |

For quick reference, copied from above (series 2):
| Substitution | normalised enrichment score |
| --- | --- |
| S12E | 0.329 |
| P1D | 0.215 |
| R6P | 0.038 |
| A10P | 0.324 |
